Assay results pooled from the literature.
A part holds a random share of what one study measured. Values joined by “and” are separate records of one study, mostly repeats; a detail may differ.
Chain of UniProt P07333 (whole entry, looked up): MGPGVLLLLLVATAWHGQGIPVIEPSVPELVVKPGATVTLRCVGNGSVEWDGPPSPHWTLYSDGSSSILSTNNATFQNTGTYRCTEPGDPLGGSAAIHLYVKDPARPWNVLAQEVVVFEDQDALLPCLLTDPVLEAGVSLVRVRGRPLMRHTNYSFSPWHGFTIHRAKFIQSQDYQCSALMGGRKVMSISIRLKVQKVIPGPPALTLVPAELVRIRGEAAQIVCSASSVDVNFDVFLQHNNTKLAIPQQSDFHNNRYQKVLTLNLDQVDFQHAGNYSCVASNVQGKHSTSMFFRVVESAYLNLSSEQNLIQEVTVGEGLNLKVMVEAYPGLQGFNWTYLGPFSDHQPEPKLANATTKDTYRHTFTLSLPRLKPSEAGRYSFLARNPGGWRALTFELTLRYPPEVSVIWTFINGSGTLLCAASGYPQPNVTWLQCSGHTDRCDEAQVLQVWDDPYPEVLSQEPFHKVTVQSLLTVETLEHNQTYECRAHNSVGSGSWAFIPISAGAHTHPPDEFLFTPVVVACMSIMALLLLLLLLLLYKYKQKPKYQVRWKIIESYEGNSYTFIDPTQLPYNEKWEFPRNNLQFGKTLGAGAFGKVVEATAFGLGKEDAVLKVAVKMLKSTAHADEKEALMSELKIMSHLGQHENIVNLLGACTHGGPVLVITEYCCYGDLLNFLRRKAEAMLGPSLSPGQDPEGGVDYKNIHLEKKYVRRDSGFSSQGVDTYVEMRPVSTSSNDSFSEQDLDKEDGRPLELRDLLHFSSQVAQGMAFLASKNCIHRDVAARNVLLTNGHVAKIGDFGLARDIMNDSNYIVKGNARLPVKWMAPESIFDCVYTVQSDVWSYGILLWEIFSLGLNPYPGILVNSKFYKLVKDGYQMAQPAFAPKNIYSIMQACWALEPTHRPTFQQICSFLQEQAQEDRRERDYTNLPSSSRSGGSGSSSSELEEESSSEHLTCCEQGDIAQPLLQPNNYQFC
Chain of UniProt O00141 (whole entry, looked up): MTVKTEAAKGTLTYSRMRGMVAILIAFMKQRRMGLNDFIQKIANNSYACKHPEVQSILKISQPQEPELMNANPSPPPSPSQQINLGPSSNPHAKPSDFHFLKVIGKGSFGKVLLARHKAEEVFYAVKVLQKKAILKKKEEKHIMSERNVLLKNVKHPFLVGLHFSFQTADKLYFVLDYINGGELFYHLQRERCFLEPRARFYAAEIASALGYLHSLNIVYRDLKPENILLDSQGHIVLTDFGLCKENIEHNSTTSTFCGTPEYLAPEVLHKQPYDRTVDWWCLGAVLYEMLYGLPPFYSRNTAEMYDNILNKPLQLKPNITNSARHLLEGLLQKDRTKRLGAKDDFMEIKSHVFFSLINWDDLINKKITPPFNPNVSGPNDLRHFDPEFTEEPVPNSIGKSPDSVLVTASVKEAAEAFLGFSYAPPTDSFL
Chain of UniProt P29323 (whole entry, looked up): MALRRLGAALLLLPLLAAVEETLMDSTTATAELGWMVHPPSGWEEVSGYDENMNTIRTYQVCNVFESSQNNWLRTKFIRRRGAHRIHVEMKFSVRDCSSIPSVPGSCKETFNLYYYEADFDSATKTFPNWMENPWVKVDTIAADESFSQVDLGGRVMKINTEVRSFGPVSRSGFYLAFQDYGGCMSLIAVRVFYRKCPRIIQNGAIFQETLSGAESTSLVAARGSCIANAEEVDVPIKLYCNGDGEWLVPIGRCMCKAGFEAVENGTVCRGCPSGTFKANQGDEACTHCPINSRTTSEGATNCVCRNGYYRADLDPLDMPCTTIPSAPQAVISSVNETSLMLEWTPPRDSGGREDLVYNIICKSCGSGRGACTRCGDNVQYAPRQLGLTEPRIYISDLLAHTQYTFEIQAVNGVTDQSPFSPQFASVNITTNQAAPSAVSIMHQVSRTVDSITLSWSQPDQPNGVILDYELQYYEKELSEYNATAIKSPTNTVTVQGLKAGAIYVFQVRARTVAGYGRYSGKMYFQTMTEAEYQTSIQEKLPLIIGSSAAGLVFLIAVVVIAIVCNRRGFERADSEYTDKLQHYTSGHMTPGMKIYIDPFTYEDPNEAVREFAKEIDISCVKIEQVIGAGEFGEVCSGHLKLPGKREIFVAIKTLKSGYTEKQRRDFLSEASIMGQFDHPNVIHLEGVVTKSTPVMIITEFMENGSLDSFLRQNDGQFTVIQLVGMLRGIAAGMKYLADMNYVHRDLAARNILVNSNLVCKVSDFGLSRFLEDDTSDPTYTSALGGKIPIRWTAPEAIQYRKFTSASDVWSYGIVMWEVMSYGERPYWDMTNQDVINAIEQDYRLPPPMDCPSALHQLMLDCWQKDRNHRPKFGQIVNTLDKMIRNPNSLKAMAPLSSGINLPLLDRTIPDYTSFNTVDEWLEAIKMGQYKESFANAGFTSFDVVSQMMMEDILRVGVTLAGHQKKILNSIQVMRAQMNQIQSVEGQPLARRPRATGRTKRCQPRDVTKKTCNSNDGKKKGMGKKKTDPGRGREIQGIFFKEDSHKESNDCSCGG
Chain of UniProt P51813 (whole entry, looked up): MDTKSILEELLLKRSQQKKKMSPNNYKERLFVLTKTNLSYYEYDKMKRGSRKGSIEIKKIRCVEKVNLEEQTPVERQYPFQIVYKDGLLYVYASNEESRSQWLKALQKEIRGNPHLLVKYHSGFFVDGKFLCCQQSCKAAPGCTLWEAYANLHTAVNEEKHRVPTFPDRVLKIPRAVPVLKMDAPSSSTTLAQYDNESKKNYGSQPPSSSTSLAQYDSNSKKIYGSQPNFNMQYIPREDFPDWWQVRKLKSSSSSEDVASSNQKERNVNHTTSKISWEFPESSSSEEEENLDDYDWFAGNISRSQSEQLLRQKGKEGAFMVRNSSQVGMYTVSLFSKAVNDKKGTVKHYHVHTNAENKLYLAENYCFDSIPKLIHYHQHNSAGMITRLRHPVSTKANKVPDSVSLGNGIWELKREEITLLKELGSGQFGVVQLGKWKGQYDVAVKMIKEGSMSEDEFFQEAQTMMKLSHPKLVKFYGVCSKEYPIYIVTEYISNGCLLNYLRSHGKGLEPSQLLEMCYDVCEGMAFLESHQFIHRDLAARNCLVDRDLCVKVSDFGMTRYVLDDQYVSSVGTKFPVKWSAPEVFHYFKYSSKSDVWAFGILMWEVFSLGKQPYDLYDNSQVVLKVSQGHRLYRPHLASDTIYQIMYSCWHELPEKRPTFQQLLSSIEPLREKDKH
Chain of UniProt Q02156 (whole entry, looked up): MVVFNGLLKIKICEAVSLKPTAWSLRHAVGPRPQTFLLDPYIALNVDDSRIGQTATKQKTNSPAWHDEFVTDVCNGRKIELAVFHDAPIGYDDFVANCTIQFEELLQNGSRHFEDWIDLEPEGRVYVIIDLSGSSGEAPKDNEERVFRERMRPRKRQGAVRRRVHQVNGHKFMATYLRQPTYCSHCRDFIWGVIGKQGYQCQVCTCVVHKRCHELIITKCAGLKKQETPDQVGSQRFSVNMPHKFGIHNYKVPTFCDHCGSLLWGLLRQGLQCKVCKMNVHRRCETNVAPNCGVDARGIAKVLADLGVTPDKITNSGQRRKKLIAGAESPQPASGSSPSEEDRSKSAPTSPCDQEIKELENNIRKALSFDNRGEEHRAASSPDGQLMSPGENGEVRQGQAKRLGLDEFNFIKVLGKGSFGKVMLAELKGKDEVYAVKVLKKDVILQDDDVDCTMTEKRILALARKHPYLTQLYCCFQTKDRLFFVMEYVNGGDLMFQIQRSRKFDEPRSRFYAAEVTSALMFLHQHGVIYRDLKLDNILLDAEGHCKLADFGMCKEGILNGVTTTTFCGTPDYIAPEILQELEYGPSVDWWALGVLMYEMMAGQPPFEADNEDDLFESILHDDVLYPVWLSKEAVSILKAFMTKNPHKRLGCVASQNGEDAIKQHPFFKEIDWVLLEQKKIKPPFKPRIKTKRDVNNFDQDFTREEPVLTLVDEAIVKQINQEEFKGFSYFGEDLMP
Chain of UniProt P43250 (whole entry, looked up): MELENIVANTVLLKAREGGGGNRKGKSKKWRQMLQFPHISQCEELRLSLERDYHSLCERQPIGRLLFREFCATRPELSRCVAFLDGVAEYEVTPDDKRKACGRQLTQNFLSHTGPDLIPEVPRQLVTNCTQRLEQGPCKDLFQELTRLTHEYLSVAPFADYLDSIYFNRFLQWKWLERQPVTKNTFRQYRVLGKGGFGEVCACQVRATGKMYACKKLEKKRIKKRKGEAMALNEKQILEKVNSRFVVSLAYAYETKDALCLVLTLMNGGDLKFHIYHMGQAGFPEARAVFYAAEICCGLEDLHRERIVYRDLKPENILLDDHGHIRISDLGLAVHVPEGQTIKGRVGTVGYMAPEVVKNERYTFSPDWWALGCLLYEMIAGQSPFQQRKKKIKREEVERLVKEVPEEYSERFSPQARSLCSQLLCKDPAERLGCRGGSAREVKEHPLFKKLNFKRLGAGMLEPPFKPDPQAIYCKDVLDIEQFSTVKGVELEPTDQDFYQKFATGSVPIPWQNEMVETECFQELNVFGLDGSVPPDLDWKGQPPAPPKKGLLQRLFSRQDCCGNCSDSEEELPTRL

Block 1 — observed: enzyme activity; mode: inhibitor; tested at: 0.5 µM; reference: control
Compound: O=C1NC(=O)c2c1c1c3ccccc3[nH]c1c1[nH]c3cc(Br)ccc3c21
GRK6 (Homo sapiens, UniProt P43250) — remaining activity: 108%.
For FGFR4 (Homo sapiens, UniProt P22455): remaining activity read 90.6%.
For PAK2 (Homo sapiens, UniProt Q13177): remaining activity read 101%.
GRK2 (Homo sapiens, UniProt P25098) — remaining activity: 97.6%.
It gave 89.2% for remaining activity (SRPK3 (Homo sapiens, UniProt Q9UPE1)).
The remaining activity was 92% (BMX (Homo sapiens, UniProt P51813)).
The remaining activity was 99.5% (EPHB2 (Homo sapiens, UniProt P29323)).
For RPS6KB1 (Homo sapiens, UniProt P23443): remaining activity read 45.2%.
It gave 14.3% for remaining activity (NUAK1 (Homo sapiens, UniProt O60285)).
The remaining activity was 58.4% (RPS6KA1 (Homo sapiens, UniProt Q15418)).
For CSK (Homo sapiens, UniProt P41240): remaining activity read 100%.
The remaining activity was 76.6% (PRKCG (Homo sapiens, UniProt P05129)).
The remaining activity was 95.3% (EPHA7 (Homo sapiens, UniProt Q15375)).
It gave 95.7% for remaining activity (PRKCE (Homo sapiens, UniProt Q02156)).
For MYLK (Homo sapiens, UniProt Q15746): remaining activity read 85.3%.
The remaining activity was 47.6% (SGK1 (Homo sapiens, UniProt O00141)).
It gave 44.6% for remaining activity (PIM2 (Homo sapiens, UniProt Q9P1W9)).
For CSF1R (Homo sapiens, UniProt P07333): remaining activity read 96%.
Aurora kinase C (AURKC, Homo sapiens, UniProt Q9UQB9) — remaining activity: 51.9%.
For FLT3 (Homo sapiens, UniProt P36888): remaining activity read 8.19%.

Block 2 — technique: CellTiter-Glo; tested at: 1 µM; reference: DMSO
Cell line: normal-adjacent epithelium patient-derived organoids sample F
With `COc1cc(Nc2nccc(-c3cnn4nc(OC)ccc34)n2)cc(C(F)(F)F)c1` the viability was 60.1%.
`CCOc1cn(-c2ccc(F)cc2C)nc1C(=O)Nc1ccc(Oc2ccnc3cc(OC)c(OC)cc23)c(F)c1` gave a viability of 111% and 96.7%.
`O=C(NCc1ccccc1)c1ccc(S(=O)(=O)NCc2ccccc2)cc1` gave a viability of 99.4% and 115%.
For `COc1cc(Nc2ncc3c(n2)-c2ccc(Cl)cc2C(c2c(F)cccc2OC)=NC3)ccc1C(=O)O`, the viability was 8%.
`Cn1cc(-c2ccc3occ(-c4cccc(-c5ccncc5)c4)c3n2)cn1` has a viability of 101%.
`COc1ccc2c(O[C@@H]3C[C@H]4C(=O)N[C@]5(C(=O)O)CC5/C=C\CCCCC[C@H](NC(=O)OC5CCCC5)C(=O)N4C3)cc(-c3csc(NC(=O)C(C)C)n3)nc2c1C` (stereo partly drawn) gave a viability of 95.1% and 111%.
`Cc1ccc(NC(=O)Nc2cc(C(F)(F)F)ccc2F)cc1Nc1ccc2c(c1)NC(=O)/C2=C\c1ccc[nH]1` has a viability of 64.1%.
For `Cl.Cl.NC1(c2ccc(-c3nc4ccn5c(=O)[nH]nc5c4cc3-c3ccccc3)cc2)CCC1`, the viability was 123% and 65%.
For `Cc1cc2c(-c3ccco3)cnc(N[C@H]3CCN(C)C[C@@H]3C(=O)NC3CCCCC3)c2[nH]c1=O`, the viability was 77.2%.
With `CCC(=NO)C(C)=Cc1ccc(F)c(C)c1` the viability was 103% and 113%.
With `CCC(=N\O)/C(C)=C/c1ccc(F)cc1` the viability was 110% and 104%.
With `COc1cccc(NC(=O)c2nc3scc(CN(C)Cc4ccccc4)c3c(=O)[nH]2)c1` the viability was 91.7% and 106%.
The viability of `COc1cccc2c1C(=O)c1c(O)c3c(c(O)c1C2=O)C[C@@](O)(C(=O)CO)C[C@@H]3O[C@H]1C[C@H](N)[C@H](O)[C@H](C)O1` is reported as 16.9%.
`COCc1nc2cnc3cc(-c4c(C)noc4C)c(OC[C@H]4CCNC4)cc3c2n1[C@H](C)c1ccccc1` has a viability of 54.3%.

Block 3 — mode: agonist
Target: Beta-1 adrenergic receptor (ADRB1, Homo sapiens, UniProt P08588)
Chain of UniProt P08588 (whole entry, looked up): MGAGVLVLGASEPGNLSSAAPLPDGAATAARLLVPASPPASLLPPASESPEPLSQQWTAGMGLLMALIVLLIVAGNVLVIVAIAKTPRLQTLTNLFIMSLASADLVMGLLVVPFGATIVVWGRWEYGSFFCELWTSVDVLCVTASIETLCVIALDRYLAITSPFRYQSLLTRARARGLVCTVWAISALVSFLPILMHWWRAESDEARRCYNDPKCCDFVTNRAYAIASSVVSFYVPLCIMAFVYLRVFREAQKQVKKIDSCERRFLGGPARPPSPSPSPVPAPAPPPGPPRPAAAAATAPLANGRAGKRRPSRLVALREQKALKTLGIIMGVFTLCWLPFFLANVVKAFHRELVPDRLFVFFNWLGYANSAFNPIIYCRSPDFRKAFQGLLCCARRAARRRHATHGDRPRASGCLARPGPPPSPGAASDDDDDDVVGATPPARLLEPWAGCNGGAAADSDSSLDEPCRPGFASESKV
`COc1ccccc1N1CCN(CC2CCOCC2)CC1` gave an Emax of 85.9%.
The Emax of `CC(CCc1ccc(O)cc1)NCCc1ccc(O)c(O)c1` (stereo not drawn) is reported as 70.5%.
`CN(C)CCN(Cc1ccc(-c2ccc(CNCCc3ccccc3)cc2)cc1)C(=O)CCC1CCCC1` gave an Emax of 40.6%.
`N#Cc1cc2c(OCC(O)CN3CCN(C(c4ccccc4)c4ccccc4)CC3)cccc2[nH]1` (stereo not drawn) gave an Emax of 111%.
`Oc1ccc(CCNCCCCCCNCCc2ccccc2)cc1O` gave an Emax of 96.6%.
The Emax of `COc1ccccc1N1CCN(C(=O)c2ccc3[nH]c4c(c3c2)CCCC4)CC1` is reported as 31.1%.
`COc1ccccc1N1CCN(CCCCNC(=O)c2ccc(-c3ccc(C(C)=O)cc3)cc2)CC1` has an Emax of 72.2%.
With `CCc1cc2c(cc1CC)CC(NCC(O)c1ccc(O)c3[nH]c(=O)ccc13)C2` (stereo not drawn) the Emax was 66%.

Block 4 — host: human; matrix: microsomes or S9; tested at: 2 µM; time: 0.5 h
`O=c1cccc2n1CC1CC(C2)N(c2nc(N3CCCCC3)nc(N3CCCCC3)n2)C1` (stereo not drawn) has a remaining compound of 3.89%.
`CCC1c2cccn2-c2sc3c(c2CN1C(=O)Nc1ccc(C)cc1C)CCCC3` (stereo not drawn) gave a remaining compound of 1.75%.
The remaining compound of `COc1c(C)c(C)c2nc(NCc3ccc(S(N)(=O)=O)cc3)sc2c1C` is reported as 99.1%.
With `CCCn1ncc(N2CCC(C(=O)N3CCN(CCOc4ccc(Cl)cc4)CC3)CC2)cc1=O` the remaining compound was 72.9%.
`CC1=CC(C)(C)N2C(=O)C3(NCCc4c3[nH]c3ccccc43)c3cccc1c32` (stereo not drawn) gave a remaining compound of 0.164%.
`Cn1c(N)c(C(=O)Cn2cc(C(F)(F)F)cc(Cl)c2=O)c(=O)n(C)c1=O` has a remaining compound of 65.5%.
`CC1(C)Cc2c(sc3c2c(=O)n(C2CCCCC2)c(=O)n3CC(=O)NCc2ccccc2)CO1` gave a remaining compound of 51.8%.
With `CCc1cc(-c2n[nH]c(C(=O)O)c2-c2nc(C)cs2)c(O)cc1O` the remaining compound was 97.7%.
With `Cc1ccc(S(=O)(=O)Nc2c(C)[nH]c(=O)[nH]c2=O)cc1` the remaining compound was 88.5%.
`CCCc1cc(O)nc(N2CCN(c3ccc(Cl)cc3)CC2)n1` has a remaining compound of 59.5%.
`CC(C)C1(C)N=C(c2nn(C)cc2Br)NC1=O` (stereo not drawn) gave a remaining compound of > 99.9%.
`COc1c(C)cnc(CN2CCC(NC(=O)OC(C)(C)C)CC2)c1C` gave a remaining compound of 92.1%.
`Cc1nn2c(-c3ccccc3)c(C#N)nnc2c1-c1ccccc1` gave a remaining compound of 35.1%.
`Cc1ccc(N2C(=O)c3n[nH]c(C)c3C2c2ccco2)cc1` (stereo not drawn) gave a remaining compound of 69.5%.
With `CCC(C)(C)Nc1[nH]c2c(Cl)cc(C)cc2c(=O)c1C(C)=O` the remaining compound was 48.1%.
`CC(C)N(/C(=N/c1c(F)cccc1F)Nc1ccc2c(c1)C=CC(C)(C)O2)C(C)C` gave a remaining compound of 2.91%.
`Cc1c(CC(=O)O)c2c(n1-c1ccc(Br)cc1)CC(C)(C)CC2=O` has a remaining compound of 61.9%.
`CC(C)/N=C1\ON(C(C)C)C(C)(C)N1c1ccccc1` has a remaining compound of 0.118%.

A few entries again (block 3):
The Emax of `CC(CCc1ccc(O)cc1)NCCc1ccc(O)c(O)c1` (stereo not drawn) is reported as 70.5%.
`CN(C)CCN(Cc1ccc(-c2ccc(CNCCc3ccccc3)cc2)cc1)C(=O)CCC1CCCC1` gave an Emax of 40.6%.
`N#Cc1cc2c(OCC(O)CN3CCN(C(c4ccccc4)c4ccccc4)CC3)cccc2[nH]1` (stereo not drawn) gave an Emax of 111%.
`Oc1ccc(CCNCCCCCCNCCc2ccccc2)cc1O` gave an Emax of 96.6%.
The Emax of `COc1ccccc1N1CCN(C(=O)c2ccc3[nH]c4c(c3c2)CCCC4)CC1` is reported as 31.1%.
`COc1ccccc1N1CCN(CCCCNC(=O)c2ccc(-c3ccc(C(C)=O)cc3)cc2)CC1` has an Emax of 72.2%.
With `CCc1cc2c(cc1CC)CC(NCC(O)c1ccc(O)c3[nH]c(=O)ccc13)C2` (stereo not drawn) the Emax was 66%.
